Results from different studies.
Protocols differ between the studies behind these lines. ± marks the error that the study gave.

For `N=C(N)NCCNC(=O)C1(Nc2ccccc2)CCN(Cc2ccccc2)CC1`, “elimination rate constant” read 0.000222 s⁻¹ (Sprague-Dawley rats, both sexes; intravenous, 2.5 mg/kg, mean of both sexes).
For `COc1cc2c(Oc3ccc4[nH]c(C)cc4c3F)ccnc2cc1OCC1(N)CC1`, “grade 1 or 2 sinus tachycardia” read 0% (paediatric recurrent refractory sarcoma; 8 mg).
`C[C@]1(CO)Cc2ncn(-c3ccc(C#N)c(Cl)c3)c2C(=O)O1` has a Cmax of 2740 nM (human, plasma; 80 mg, first dose fasted).
`COc1ccc(-c2c(-c3ccc(C#N)c(F)c3)nc(N3CCC(N)CC3)n(C)c2=O)cc1F`: “treatment-related adverse event incidence” 0% (item: Leukopenia; neuroendocrine neoplasm patients; oral, 60 mg, grade 3 to 4, dose expansion).
With `Clc1ccc(-c2ccccc2)cc1` the gamma-glutamyltransferase was 0.3 ± 0.6 U/L (Sprague-Dawley rats, female, serum; inhalation, 23 µg/rat, 4 h after exposure).
`C[C@@H](NC(=O)N1C(=O)[C@H](Cc2ccnc(N)c2)[C@H]1C(=O)O)C1CCCCC1` — result for “incidence of infusion site pain”: 0% (healthy adult Chinese volunteers; continuous intravenous infusion, 1.5 mg/kg/h, 5-day infusion, CTCAE 5.0 grading).
With `CO[C@H]1C[C@@H]2CC[C@@H](C)[C@@](O)(O2)C(=O)C(=O)N2CCCC[C@H]2C(=O)O[C@H]([C@H](C)C[C@@H]2CC[C@@H](OC(=O)NCCOCCOCCOCCOCCOCCOCCOCCOCCC(=O)N3CCc4cc(Cn5nc(-c6ccc7oc(N)nc7c6)c6c(N)ncnc65)ccc4C3)[C@H](OC)C2)C[C@@H](O)[C@H](C)/C=C(\C)[C@@H](O)[C@@H](OC)C(=O)[C@H](C)C[C@H](C)/C=C/C=C/C=C/1C` the TRAE incidence was 6.3% (phase 1 dose escalation, item: rash; advanced solid tumour patients; intravenous, 8 mg weekly, grade ≥3).
`COc1c(OCCCN2CCOCC2)ccc2c1N=C(NC(=O)c1cnc(N)nc1)N1CCN=C21` — result for “systolic blood pressure”: 119 ± 11.3 mmHg (human, solid tumour expansion cohort; 0.8 mg/kg, day 8, pre-infusion).
For `Oc1c(Cl)cc2c(c1Cl)Oc1cc(Cl)c(Cl)cc1O2`, “dose fraction in milk fat” read 54.8% (whole cow milk; 100 nM nominal).
`CN1C(=O)[C@@H](NC(=O)c2nnc(Cc3ccccc3)[nH]2)COc2cccnc21`: “participants with TEAE leading to death” 0% (phase I single ascending dose; human, male and female; oral, 200 mg, fasted).
For `O=c1nc(NO)ccn1[C@@H]1O[C@H](CO)[C@@H](O)[C@H]1O`, the freeze-thaw stability was 106 ± 1.62% (rat amniotic fluid dialysate; 1000 ng/mL, high concentration, three cycles, with: molnupiravir 250 ng/mL).
The HDW of `CCc1ccc(CC/C=C/c2ccc3c(c2)C(=O)CC3)cc1` is reported as 24.1 g/L (Sprague-Dawley rat, female; oral, 120 mg/kg/day, 14 days).
Under “patients with Hyperphosphatemia TEAE”, `C[C@]1(O)C[C@@](N)(c2ccc(-c3nc4n(c3-c3ccccc3)COc3ccncc3-4)cc2)C1` is recorded as 33.3% (human, advanced or metastatic solid tumours; 28 mg intermittent, phase I dose escalation).

For quick reference, copied from above:
Under “patients with Hyperphosphatemia TEAE”, `C[C@]1(O)C[C@@](N)(c2ccc(-c3nc4n(c3-c3ccccc3)COc3ccncc3-4)cc2)C1` is recorded as 33.3% (human, advanced or metastatic solid tumours; 28 mg intermittent, phase I dose escalation).
